Assay results of several laboratories.
Each line is one published result; not all experiments were run side by side. ± marks the error that the study gave.
CYP1A2: Cytochrome P450 1A2 (CYP1A2, Homo sapiens, UniProt P05177)
UniProt P05177, sequence (whole entry, looked up): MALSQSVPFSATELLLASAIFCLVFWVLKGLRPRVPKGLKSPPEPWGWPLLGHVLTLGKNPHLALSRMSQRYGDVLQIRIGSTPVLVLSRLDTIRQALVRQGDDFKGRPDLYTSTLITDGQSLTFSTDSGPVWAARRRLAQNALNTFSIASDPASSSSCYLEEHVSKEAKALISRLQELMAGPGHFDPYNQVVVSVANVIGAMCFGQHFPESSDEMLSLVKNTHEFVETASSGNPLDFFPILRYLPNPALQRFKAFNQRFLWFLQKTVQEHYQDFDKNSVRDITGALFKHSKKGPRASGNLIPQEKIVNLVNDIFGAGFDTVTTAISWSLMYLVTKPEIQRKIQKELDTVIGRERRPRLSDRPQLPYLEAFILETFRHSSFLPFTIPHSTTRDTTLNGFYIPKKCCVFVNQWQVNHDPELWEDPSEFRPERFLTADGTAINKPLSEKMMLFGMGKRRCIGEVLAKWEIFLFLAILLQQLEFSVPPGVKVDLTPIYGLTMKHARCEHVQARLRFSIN
PROK: Proteinase K (PROK, Engyodontium album, UniProt P06873)
UniProt P06873, sequence (whole entry, looked up): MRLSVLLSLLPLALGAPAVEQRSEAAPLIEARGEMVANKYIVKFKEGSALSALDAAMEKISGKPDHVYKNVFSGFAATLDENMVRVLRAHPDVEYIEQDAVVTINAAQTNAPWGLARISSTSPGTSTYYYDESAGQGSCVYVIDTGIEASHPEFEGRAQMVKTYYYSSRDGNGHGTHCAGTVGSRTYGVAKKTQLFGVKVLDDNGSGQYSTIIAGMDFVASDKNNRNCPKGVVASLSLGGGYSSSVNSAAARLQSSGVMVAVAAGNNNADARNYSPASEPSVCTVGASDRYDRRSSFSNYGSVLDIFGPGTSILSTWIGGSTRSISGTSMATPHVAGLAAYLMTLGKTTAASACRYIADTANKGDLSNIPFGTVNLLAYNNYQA
CYP2E1: Cytochrome P450 2E1 (CYP2E1, Homo sapiens, UniProt P05181)
UniProt P05181, sequence (whole entry, looked up): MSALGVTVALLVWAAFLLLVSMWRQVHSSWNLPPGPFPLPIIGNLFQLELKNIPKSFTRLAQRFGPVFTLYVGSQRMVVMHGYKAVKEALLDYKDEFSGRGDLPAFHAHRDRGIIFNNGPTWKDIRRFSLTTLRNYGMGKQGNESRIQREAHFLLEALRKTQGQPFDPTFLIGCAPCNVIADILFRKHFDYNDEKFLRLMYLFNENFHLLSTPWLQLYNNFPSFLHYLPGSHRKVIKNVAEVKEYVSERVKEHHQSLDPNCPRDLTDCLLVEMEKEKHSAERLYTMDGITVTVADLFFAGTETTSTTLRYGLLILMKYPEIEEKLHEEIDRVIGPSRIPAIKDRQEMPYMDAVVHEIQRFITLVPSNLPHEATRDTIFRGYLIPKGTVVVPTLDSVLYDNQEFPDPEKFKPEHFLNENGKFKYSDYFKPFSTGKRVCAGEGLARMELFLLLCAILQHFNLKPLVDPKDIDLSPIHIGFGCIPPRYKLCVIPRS
UniProt P61073, sequence (whole entry, looked up): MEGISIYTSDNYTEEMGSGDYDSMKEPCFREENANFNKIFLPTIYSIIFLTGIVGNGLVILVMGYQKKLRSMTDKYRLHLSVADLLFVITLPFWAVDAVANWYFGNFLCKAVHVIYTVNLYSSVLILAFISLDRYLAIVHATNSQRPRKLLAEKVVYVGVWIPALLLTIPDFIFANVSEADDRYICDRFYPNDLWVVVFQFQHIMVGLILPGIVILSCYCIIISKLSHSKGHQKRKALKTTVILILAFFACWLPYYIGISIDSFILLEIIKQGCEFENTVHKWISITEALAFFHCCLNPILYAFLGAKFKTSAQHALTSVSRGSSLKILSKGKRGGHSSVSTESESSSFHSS
UniProt P19111, sequence (whole entry, looked up): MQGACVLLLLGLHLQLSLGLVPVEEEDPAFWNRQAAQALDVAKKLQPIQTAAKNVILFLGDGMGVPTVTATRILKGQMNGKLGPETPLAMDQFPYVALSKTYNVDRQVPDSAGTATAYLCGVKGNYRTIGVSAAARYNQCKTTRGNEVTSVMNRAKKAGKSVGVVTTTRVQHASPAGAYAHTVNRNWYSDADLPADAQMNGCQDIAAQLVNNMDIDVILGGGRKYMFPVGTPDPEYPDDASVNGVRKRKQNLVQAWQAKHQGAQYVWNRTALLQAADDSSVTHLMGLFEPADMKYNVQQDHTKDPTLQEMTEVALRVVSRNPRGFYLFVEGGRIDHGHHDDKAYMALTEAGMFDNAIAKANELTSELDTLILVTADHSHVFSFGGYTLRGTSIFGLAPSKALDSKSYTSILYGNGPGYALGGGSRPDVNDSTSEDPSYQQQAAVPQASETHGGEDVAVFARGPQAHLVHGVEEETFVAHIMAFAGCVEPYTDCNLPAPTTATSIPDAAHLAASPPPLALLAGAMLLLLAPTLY
UniProt P08684, sequence (whole entry, looked up): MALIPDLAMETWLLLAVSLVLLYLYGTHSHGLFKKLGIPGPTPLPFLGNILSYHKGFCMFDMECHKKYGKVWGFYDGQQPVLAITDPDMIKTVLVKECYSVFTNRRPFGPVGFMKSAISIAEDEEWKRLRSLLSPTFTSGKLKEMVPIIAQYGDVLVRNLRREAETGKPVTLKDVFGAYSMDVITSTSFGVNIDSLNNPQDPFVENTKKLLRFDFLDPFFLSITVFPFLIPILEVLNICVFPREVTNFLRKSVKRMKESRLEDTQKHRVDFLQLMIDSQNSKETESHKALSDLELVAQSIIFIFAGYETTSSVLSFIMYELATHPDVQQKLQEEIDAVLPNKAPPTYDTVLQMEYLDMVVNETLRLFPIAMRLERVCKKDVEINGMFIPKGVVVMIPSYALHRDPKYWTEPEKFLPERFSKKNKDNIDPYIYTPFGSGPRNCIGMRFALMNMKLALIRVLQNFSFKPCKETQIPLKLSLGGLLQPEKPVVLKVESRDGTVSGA

Compound | target or system | test | test system | conditions | how to read | quantity | value
C=CC(=O)Nc1cc(Nc2nccc(-c3cn(C)c4ccccc34)n2)c(OCC(F)(F)F)nc1N(C)CCN(C)C | Cytochrome P450 3A4 (CYP3A4, Homo sapiens, UniProt P08684) | enzyme activity, inhibitor | human, liver microsomes | 1 µM, midazolam probe |  | activity vs control | 77.7%
CNC(=O)Oc1cc(C)c(S(C)(=O)=O)c(C)c1 | CYP1A2 | inhibitor | human liver microsomes | 10 µM, pH 7.4, together with: phenacetin |  | inhibition | 15.3%
O=P([O-])([O-])Oc1ccc(-c2cc(=S)ss2)cc1.[Na+].[Na+] | Intestinal-type alkaline phosphatase (ALPI, Bos taurus, UniProt P19111) | prodrug conversion, substrate | bovine intestinal enzyme | 300 µM, pH 7.4, 37 °C |  | time to complete hydrolysis | < 5 s
CC[C@H](C)[C@H](NC(=O)[C@H](Cc1ccc(OCc2cn(CCOCCOCCOCCOC)nn2)cc1)NC(=O)[C@H](CC(N)=O)NC(=O)[C@H](Cc1ccccc1)NC(=O)[C@H](Cc1ccc(O)cc1)NC(=O)[C@H](Cc1ccc(O)cc1)NC(=O)[C@@H](NC(=O)[C@H](CCCNC(=N)N)NC(=O)CNC(=O)[C@H](CO)NC(=O)[C@H](CO)NC(=O)[C@H](CCCNC(=N)N)NC(=O)[C@H](CO)NC(=O)[C@H](CCSC)NC(=O)[C@H](CCCNC(=N)N)NC(=O)[C@H](CCCCN)NC(=O)[C@H](CCC(=O)O)NC(=O)[C@H](Cc1c[nH]c2ccccc12)NC(=O)CNC(=O)[C@@H]1CCCN1C(=O)[C@@H]1CCCN1C(=O)[C@H](CC(C)C)NC(=O)[C@@H](N)CCCCN)C(C)C)C(=O)N[C@H](C(=O)N[C@@H](CC(N)=O)C(=O)N[C@@H](C)C(=O)N[C@@H](CO)C(=O)N[C@@H](CCC(N)=O)C(=O)N[C@@H](Cc1ccccc1)C(=O)N[C@@H](CCC(=O)O)C(=O)N[C@@H](CCCNC(=N)N)C(=O)N1CCC[C@H]1C(=O)N[C@@H](CO)C(=O)NCC(=O)O)[C@@H](C)O | PROK | proteolysis, substrate, HPLC |  | room temperature | reference: PEGylated over non-PEGylated variant, negative = more stable | ln rate constant ratio | -1.3 ± 0.4
CC[C@H](C)[C@@H]1NC(=O)[C@H](C(C)C)NC(=O)[C@H](C(C)C)NC(=O)[C@H](CC(C)C)NC(=O)C[C@@H](C(=O)N[C@@H](Cc2c[nH]c3ccccc23)C(=O)N[C@@H](CC(N)=O)C(=O)N[C@@H](C)C(=O)N2CCC[C@H]2C(=O)NCC(=O)N[C@@H](Cc2ccccc2)C(=O)N[C@@H](Cc2ccccc2)C(=O)O)NC(=O)[C@H](C)NC(=O)[C@H](CCC(N)=O)NC(=O)[C@H](C(C)C)NC1=O | carboxypeptidase Y |  |  | 12 h, pH 6.0, 28 °C |  | proteolytic stability | stable
O=C1Cc2cc(CCN3CCN(C4=NS(=O)(=O)c5ccccc54)CC3)c(Cl)cc2N1 | CYP1A2 | inhibitor | human liver microsomes | 10 µM, pH 7.4, together with: phenacetin |  | inhibition | 45.6%
CC[C@H](C)[C@H](NC(=O)[C@H](C)NC(=O)[C@H](CCCNC(=N)N)NC(=O)[C@@H](NC(=O)[C@H](CCCCN)NC(=O)[C@H](CC(N)=O)NC(=O)[C@H](CCCNC(=N)N)NC(=O)[C@@H](NC(=O)[C@@H](NC(=O)[C@H](CCC(=O)O)NC(=O)[C@H](CCCCN)NC(=O)[C@H](CCCNC(=N)N)NC(=O)[C@H](C)NC(=S)Nc1ccc2c(c1)C(=O)OC21c2ccc(O)cc2Oc2cc(O)ccc21)[C@@H](C)CC)[C@@H](C)CC)[C@@H](C)CC)C(=O)NCC(=O)N[C@@H](CCCCN)C(=O)N[C@@H](CCSC)C(=O)N[C@@H](C)C(=O)N[C@@H](CCCNC(=N)N)C(=O)N[C@H](C(=O)N[C@@H](Cc1ccccc1)C(=O)N[C@@H](CO)C(=O)N[C@H](C(=O)N[C@@H](CC(C)C)C(=O)N[C@@H](CCCNC(=N)N)C(=O)O)C(C)C)C(C)C | Calmodulin, Ca2+-bound (CAM, Paramecium tetraurelia, UniProt P07463) | analytical ultracentrifugation |  | Paramecium |  | complex molecular mass | 19.4 kDa
CC[C@H](C)[C@H](NC(=O)[C@H](Cc1c[nH]cn1)NC(=O)[C@H](CC(N)=O)NC(=O)[C@H](Cc1ccccc1)NC(=O)[C@H](Cc1ccc(O)cc1)NC(=O)[C@H](Cc1ccc(O)cc1)NC(=O)[C@@H](NC(=O)[C@H](CCCNC(=N)N)NC(=O)CNC(=O)[C@H](CO)NC(=O)[C@H](Cc1ccc(OCc2cn(CCOCCOCCOCCOC)nn2)cc1)NC(=O)[C@H](CCCNC(=N)N)NC(=O)[C@H](CO)NC(=O)[C@H](CCSC)NC(=O)[C@H](CCCNC(=N)N)NC(=O)[C@H](CCCCN)NC(=O)[C@H](CCC(=O)O)NC(=O)[C@H](Cc1c[nH]c2ccccc12)NC(=O)CNC(=O)[C@@H]1CCCN1C(=O)[C@@H]1CCCN1C(=O)[C@H](CC(C)C)NC(=O)[C@@H](N)CCCCN)C(C)C)C(=O)N[C@H](C(=O)N[C@@H](CC(N)=O)C(=O)N[C@@H](C)C(=O)N[C@@H](CO)C(=O)N[C@@H](CCC(N)=O)C(=O)N[C@@H](Cc1ccccc1)C(=O)N[C@@H](CCC(=O)O)C(=O)N[C@@H](CCCNC(=N)N)C(=O)N1CCC[C@H]1C(=O)N[C@@H](CO)C(=O)NCC(=O)O)[C@@H](C)O | PROK | proteolysis, substrate, HPLC |  | room temperature | reference: PEGylated over non-PEGylated variant, negative = more stable | ln rate constant ratio | 0 ± 0.5
Cc1cc(Br)c(O)c(Br)c1 | CYP2E1 | p-nitrophenol hydroxylation, inhibitor |  | 10 min, together with: p-nitrophenol 100 µM |  | IC50 | 14 µM
CN[C@](C)(C[18F])C(=O)O | DU-145 tumour model |  | host not given, liver | 15 min, tumour-bearing |  | tracer uptake | 6.2 %ID/g
CC[C@H](C)[C@H](NC(=O)[C@H](Cc1c[nH]cn1)NC(=O)[C@H](CC(N)=O)NC(=O)[C@H](Cc1ccccc1)NC(=O)[C@H](Cc1ccc(O)cc1)NC(=O)[C@H](Cc1ccc(O)cc1)NC(=O)[C@@H](NC(=O)[C@H](CCCNC(=N)N)NC(=O)CNC(=O)[C@H](CO)NC(=O)[C@H](CC(=O)N(CCOCCOCCOCCOC)CCOCCOCCOCCOC)NC(=O)[C@H](CCCNC(=N)N)NC(=O)[C@H](CO)NC(=O)[C@H](CCSC)NC(=O)[C@H](CCCNC(=N)N)NC(=O)[C@H](CCCCN)NC(=O)[C@H](CCC(=O)O)NC(=O)[C@H](Cc1c[nH]c2ccccc12)NC(=O)CNC(=O)[C@@H]1CCCN1C(=O)[C@@H]1CCCN1C(=O)[C@H](CC(C)C)NC(=O)[C@@H](N)CCCCN)C(C)C)C(=O)N[C@H](C(=O)N[C@@H](CC(N)=O)C(=O)N[C@@H](C)C(=O)N[C@@H](CO)C(=O)N[C@@H](CCC(N)=O)C(=O)N[C@@H](Cc1ccccc1)C(=O)N[C@@H](CCC(=O)O)C(=O)N[C@@H](CCCNC(=N)N)C(=O)N1CCC[C@H]1C(=O)N[C@@H](CO)C(=O)NCC(=O)O)[C@@H](C)O | PROK | proteolysis, substrate, HPLC |  | room temperature | reference: PEGylated over non-PEGylated variant, negative = more stable | ln rate constant ratio | 0.4 ± 0.5
CN1C(=O)[C@@H](Cc2ccc(O)cc2)NC(=O)CNC(=O)[C@H](Cc2ccc3ccccc3c2)NC(=O)[C@H](CCCNC(=N)N)NC(=O)[C@H]1CCCNC(=O)c1ccc(CNC(=O)CN2CCN(CC(=O)O)CCN(CC(=O)O)CCN(CC(=O)O)CC2)cc1 [gallium-68 labelled] | C-X-C chemokine receptor type 4 (CXCR4, Homo sapiens, UniProt P61073) | PET imaging | human, muscle |  |  | SUVmean | 0.77
CC[C@H](C)[C@H](NC(=O)[C@H](Cc1c[nH]cn1)NC(=O)[C@H](CC(N)=O)NC(=O)[C@H](Cc1ccccc1)NC(=O)[C@H](Cc1ccc(O)cc1)NC(=O)[C@H](Cc1ccc(O)cc1)NC(=O)[C@@H](NC(=O)[C@H](CCCNC(=N)N)NC(=O)CNC(=O)[C@H](CO)NC(=O)[C@H](CO)NC(=O)[C@H](CCCNC(=N)N)NC(=O)[C@H](CO)NC(=O)[C@H](CCSC)NC(=O)[C@H](CCCNC(=N)N)NC(=O)[C@H](CCCCN)NC(=O)[C@H](CCC(=O)O)NC(=O)[C@H](Cc1c[nH]c2ccccc12)NC(=O)CNC(=O)[C@@H]1CCCN1C(=O)[C@@H]1CCCN1C(=O)[C@H](CC(C)C)NC(=O)[C@@H](N)CCCCN)C(C)C)C(=O)N[C@@H](CC(=O)N(CCOCCOCCOCCOC)CCOCCOCCOCCOC)C(=O)N[C@@H](CC(N)=O)C(=O)N[C@@H](C)C(=O)N[C@@H](CO)C(=O)N[C@@H](CCC(N)=O)C(=O)N[C@@H](Cc1ccccc1)C(=O)N[C@@H](CCC(=O)O)C(=O)N[C@@H](CCCNC(=N)N)C(=O)N1CCC[C@H]1C(=O)N[C@@H](CO)C(=O)NCC(=O)O | PROK | proteolysis, substrate, HPLC |  | room temperature | reference: PEGylated over non-PEGylated variant, negative = more stable | ln rate constant ratio | -2 ± 0.4
CCCS(=O)(=O)c1ccc2[nH]c(NC(=O)OC)nc2c1 | CYP1A2 | inhibitor | human liver microsomes | 10 µM, pH 7.4, together with: phenacetin |  | inhibition | 7.84%
[64Cu+2].c1ccc(CNCc2ccc(CN3CCCNCCNCCCNCC3)cc2)nc1 | CXCR4 |  | NOD/SCID mouse, U87 xenografts, small intestine | 90 min |  | tissue uptake | 3.32 ± 0.14 %ID/g
CC[C@H](C)[C@H](NC(=O)[C@H](Cc1c[nH]cn1)NC(=O)[C@H](CC(N)=O)NC(=O)[C@H](Cc1ccccc1)NC(=O)[C@H](Cc1ccc(O)cc1)NC(=O)[C@H](Cc1ccc(O)cc1)NC(=O)[C@@H](NC(=O)[C@H](CCCNC(=N)N)NC(=O)CNC(=O)[C@H](CO)NC(=O)[C@H](CO)NC(=O)[C@H](CCCNC(=N)N)NC(=O)[C@H](CO)NC(=O)[C@H](CCSC)NC(=O)[C@H](CCCNC(=N)N)NC(=O)[C@H](CCCCN)NC(=O)[C@H](CCC(=O)O)NC(=O)[C@H](Cc1c[nH]c2ccccc12)NC(=O)CNC(=O)[C@@H]1CCCN1C(=O)[C@@H]1CCCN1C(=O)[C@H](CC(C)C)NC(=O)[C@@H](N)CCCCN)C(C)C)C(=O)N[C@@H](Cc1ccc(OCc2cn(CCOCCOCCOCCOC)nn2)cc1)C(=O)N[C@@H](CC(N)=O)C(=O)N[C@@H](C)C(=O)N[C@@H](CO)C(=O)N[C@@H](CCC(N)=O)C(=O)N[C@@H](Cc1ccccc1)C(=O)N[C@@H](CCC(=O)O)C(=O)N[C@@H](CCCNC(=N)N)C(=O)N1CCC[C@H]1C(=O)N[C@@H](CO)C(=O)NCC(=O)O | PROK | proteolysis, substrate, HPLC |  | room temperature | reference: PEGylated over non-PEGylated variant, negative = more stable | ln rate constant ratio | -0.1 ± 0.4
Oc1c(Br)cccc1Br | CYP2E1 | p-nitrophenol hydroxylation, noncompetitive inhibitor, calculated from IC50 | baculosomes |  |  | Ki | 29 µM

Some of these lines once more:
Compound | target or system | test | test system | conditions | how to read | quantity | value
O=P([O-])([O-])Oc1ccc(-c2cc(=S)ss2)cc1.[Na+].[Na+] | Intestinal-type alkaline phosphatase (ALPI, Bos taurus, UniProt P19111) | prodrug conversion, substrate | bovine intestinal enzyme | 300 µM, pH 7.4, 37 °C |  | time to complete hydrolysis | < 5 s
